Assay results from different studies.
Each line is one published result; not all experiments were run side by side. Numbers after ± are the reported error.

Compound	test	system	conditions	scale	measurement	result
CC[C@@]1(OC(=O)CCC(=O)NCCCC[C@H](NC(=O)[C@H](Cc2ccccc2)NC(=O)[C@H](Cc2ccccc2)NC(=O)CCSC2=C(/C=C/C3=[N+](C)c4ccccc4C3(C)C)CCC/C2=C\C=C2\N(C)c3ccccc3C2(C)C)C(=O)N[C@@H](CCCCNC(=O)CCCC[C@@H]2SC[C@@H]3NC(=O)N[C@@H]32)C(=O)O)C(=O)OCc2c1cc1n(c2=O)Cc2cc3ccccc3nc2-1	fluorescence imaging	BALB/c nude mice with 4T1 tumour	intravenous, 0.05 µmol/kg, 12 h post injection	relative to: tumour over healthy tissue	tumour to normal tissue ratio	6.6
N=C(N)NCCC[C@@H]1NC(=O)[C@H](CCCCNC(=O)CCOCCOCCOCCOCCNC(=O)CC[C@H](NC(=O)CCOCCOCCOCCOCCNC(=O)CC[C@H](NC(=O)CN2CCN(CC(=O)O)CCN(CC(=O)O)CCN(CC(=O)O)CC2)C(=O)NCCOCCOCCOCCOCCC(=O)N[C@@H](CCC(=O)NCCOCCOCCOCCOCCC(=O)NCCCC[C@@H]2NC(=O)[C@@H](Cc3ccccc3)NC(=O)[C@H](CC(=O)O)NC(=O)CNC(=O)[C@H](CCCNC(=N)N)NC2=O)C(=O)NCCOCCOCCOCCOCCC(=O)NCCCC[C@@H]2NC(=O)[C@@H](Cc3ccccc3)NC(=O)[C@H](CC(=O)O)NC(=O)CNC(=O)[C@H](CCCNC(=N)N)NC2=O)C(=O)NCCOCCOCCOCCOCCC(=O)NCCCC[C@@H]2NC(=O)[C@@H](Cc3ccccc3)NC(=O)[C@H](CC(=O)O)NC(=O)CNC(=O)[C@H](CCCNC(=N)N)NC2=O)NC(=O)[C@@H](Cc2ccccc2)NC(=O)[C@H](CC(=O)O)NC(=O)CNC1=O [indium-111 labelled]	–	athymic nude mice, female, U-87 MG glioma xenograft, tumour and lungs	intravenous, 4 h	relative to: tumour over lungs	tumour to tissue ratio	3.86 ± 1.09
CSCC[C@H](NC(=O)[C@H](CC(C)C)NC(=O)[C@H](Cc1c[nH]cn1)NC(=O)CNC(=O)[C@@H](NC(=O)[C@H](C)NC(=O)[C@H](Cc1c[nH]c2ccccc12)NC(=O)[C@H](CCC(N)=O)NC(=O)CCCCCCCNC(=S)Nc1ccc(C[C@H]2CN(CC(=O)O)CCN(CC(=O)O)CCN2CC(=O)O)cc1)C(C)C)C(N)=O [copper-64 labelled]	–	female SCID mice, PC-3 xenograft, tumour	intravenous, 0.5 MBq, 1 h	–	tumour uptake	2.76 %ID/g
CCCC[C@H](NC(=O)CCCCCCCNC(=O)c1ccc(NN)nc1)C(=O)N[C@H]1CC(=O)NCCCC[C@@H](C(N)=O)NC(=O)[C@H](Cc2c[nH]c3ccccc23)NC(=O)[C@H](CCCNC(=N)N)NC(=O)[C@@H](Cc2ccccc2)NC(=O)[C@H](Cc2c[nH]cn2)NC1=O [technetium-99m labelled]	–	B16/F1 melanoma-bearing C57 mice, tumour	concentration not given, 2 h post-injection, together with: NDP-MSH 10 µg	–	tumour uptake blocked	94.5%
CCCC[C@H](NC(=O)CNC(=O)CNC(=O)c1ccc(NN)nc1)C(=O)N[C@H]1CC(=O)NCCCC[C@@H](C(N)=O)NC(=O)[C@H](Cc2c[nH]c3ccccc23)NC(=O)[C@H](CCCNC(=N)N)NC(=O)[C@@H](Cc2ccccc2)NC(=O)[C@H](Cc2c[nH]cn2)NC1=O [technetium-99m labelled]	–	C57 mice bearing B16/F1 melanoma	dose not given, 4 h post-injection	relative to: tumour uptake at 2 h	tumour radioactivity retained	93.6%
N=C(N)NCCC[C@@H]1NC(=O)[C@H](CCCCNC(=O)CNC(=O)CNC(=O)CNC(=O)CC[C@H](NC(=O)c2ccc(NN=Cc3ccccc3S(=O)(=O)O)nc2)C(=O)NCC(=O)NCC(=O)NCC(=O)NCCCC[C@@H]2NC(=O)[C@@H](Cc3ccccc3)NC(=O)[C@H](CC(=O)O)NC(=O)CNC(=O)[C@H](CCCNC(=N)N)NC2=O)NC(=O)[C@@H](Cc2ccccc2)NC(=O)[C@H](CC(=O)O)NC(=O)CNC1=O [technetium-99m labelled]	–	female athymic nu/nu mice, U-87 MG glioma, tumour	intravenous, dose not given, 120 min, tumour weight 0.1-0.25 g	–	tumour uptake	8 to 14 %ID/g
N=C(N)NCCC[C@@H]1NC(=O)[C@H](CCCCNC(=O)CC[C@H](NC(=O)CCOCCOCCOCCOCCNC(=O)CN2CCN(CC(=O)O)CCN(CC(=O)O)CCN(CC(=O)O)CC2)C(=O)NCCCC[C@@H]2NC(=O)[C@@H](Cc3ccccc3)NC(=O)[C@H](CC(=O)O)NC(=O)CNC(=O)[C@H](CCCNC(=N)N)NC2=O)NC(=O)[C@@H](Cc2ccccc2)NC(=O)[C@H](CC(=O)O)NC(=O)CNC1=O [indium-111 labelled]	–	athymic nude mice, female, U-87 MG glioma xenograft, tumour and blood	intravenous, 1 h	relative to: tumour over blood	tumour to tissue ratio	9.8 ± 0.78
CSCC[C@H](NC(=O)[C@H](CC(C)C)NC(=O)[C@H](Cc1c[nH]cn1)NC(=O)CNC(=O)[C@@H](NC(=O)[C@H](C)NC(=O)[C@H](Cc1c[nH]c2ccccc12)NC(=O)[C@H](CCC(N)=O)NC(=O)[C@H](CC(N)=O)NC(=O)CNC(=O)[C@H](Cc1ccc(O)cc1)NC(=O)[C@H](CCCNC(=N)N)NC(=O)[C@H](CCC(N)=O)NC(=O)[C@@H]1CCCN1C(=O)CN1CCN(CC(=O)O)CCN(CC(=O)O)CCN(CC(=O)O)CC1)C(C)C)C(N)=O [indium-111 labelled]	–	Swiss nu/nu mice, PC-3 xenograft	intravenous, 10 pmol, 1 h to 24 h post injection	–	tumour to kidney ratio change	1 fold
N=C(N)NCCC[C@@H]1NC(=O)[C@H](CCCCNC(=O)CCOCCOCCOCCOCCNC(=O)CN2CCN(CC(=O)O)CCN(CC(=O)O)CCN(CC(=O)O)CC2)NC(=O)[C@@H](Cc2ccccc2)NC(=O)[C@H](CC(=O)O)NC(=O)CNC1=O [indium-111 labelled]	–	athymic nude mice, female, U-87 MG glioma xenograft, tumour and brain	intravenous, 72 h	relative to: tumour over brain	tumour to tissue ratio	37.2 ± 10.4
CC[C@H]1c2cc3[nH]c4c(c3C)C(=O)[C@H](C(=O)OC)c4c3nc(cc4[nH]c(cc(n2)[C@@H]1C)c(C(C)=O)c4C)[C@@H](C)[C@@H]3CCC(=O)NCC(=O)N[C@H](CC(=O)O)C(=O)N[C@H](CCC(=O)O)C(=O)N[C@@H](C(=O)N[C@H](CC(=O)O)C(=O)NCC(=O)N[C@H](CO)C(=O)NCC(=O)N[C@H](CCCCNC(=O)CC[C@H](NC(=O)c1ccc(NCc2cnc3nc(N)[nH]c(=O)c3n2)cc1)C(=O)O)C(N)=O)C(C)C	–	nude mice, HT-1080 xenograft	intravenous, 25 nmol, 5 h to 24 h, low folate receptor tumour	–	tumour fluorescence change	decreased

Repeated from above:
Compound	test	system	conditions	scale	measurement	result
CC[C@H]1c2cc3[nH]c4c(c3C)C(=O)[C@H](C(=O)OC)c4c3nc(cc4[nH]c(cc(n2)[C@@H]1C)c(C(C)=O)c4C)[C@@H](C)[C@@H]3CCC(=O)NCC(=O)N[C@H](CC(=O)O)C(=O)N[C@H](CCC(=O)O)C(=O)N[C@@H](C(=O)N[C@H](CC(=O)O)C(=O)NCC(=O)N[C@H](CO)C(=O)NCC(=O)N[C@H](CCCCNC(=O)CC[C@H](NC(=O)c1ccc(NCc2cnc3nc(N)[nH]c(=O)c3n2)cc1)C(=O)O)C(N)=O)C(C)C	–	nude mice, HT-1080 xenograft	intravenous, 25 nmol, 5 h to 24 h, low folate receptor tumour	–	tumour fluorescence change	decreased
